# Assay results pooled from the literature.
# Lines come from different studies, so protocols differ. Numbers after ± are the reported error.
SMILES,cell line,test,conditions,IC50
CCCCCCCNC(=O)CP(=O)(O)O,Vero CCL-81,cytotoxicity,,43 µg/mL
C=CC(=O)N[C@H]1C=C(C)c2c(-c3cnc4ccccc4c3)c3c(N)ncnc3n2C1,NCI-H2073 KI SVD,"cell proliferation, CellTiter-Glo",72 h,8.11 nM
O=C(c1ccccc1)c1cc2c(-c3ccccc3)c(O)ccc2o1,FM3A,cell proliferation,48 h,37000 ± 18000 nM
Cc1sc2c(c1C)C(c1ccc(Cl)cc1)=N[C@@H](CC(N)=O)c1nnc(C)n1-2,uveal melanoma cell lines,cell viability,average over cell lines,141 nM
CC(C)C[C@H](NC(=O)[C@H](Cc1c[nH]c2ccccc12)NC(=O)[C@@H](NC(=O)[C@H](CC(C)C)NC(=O)[C@H](Cc1ccccc1)NC(=O)[C@@H](NC(=O)[C@H](CCCCN)NC(=O)[C@H](CCCNC(=N)N)NC(=O)[C@H](CCCCN)NC(=O)[C@H](CCCCN)NC(=O)[C@H](CCCCN)NC(=O)[C@@H]1CCCN1C(=S)Nc1ccc2c(c1)C(=O)OC21c2ccc(O)cc2Oc2cc(O)ccc21)C(C)C)[C@@H](C)O)C(=O)O,NCI-H1975,CCK-8,liposome-delivered,19000 nM
CC[C@@]1(O)C(=O)OCc2c1cc1n(c2=O)Cc2cc3ccccc3nc2-1,uveal melanoma cell lines,cell viability,average over cell lines,334 nM
C[C@H]1O[C@@H](O[C@H]2[C@@H](O)C[C@H](O[C@H]3[C@@H](O)C[C@H](O[C@H]4CC[C@@]5(C)[C@H](CC[C@@H]6[C@@H]5C[C@@H](O)[C@]5(C)[C@@H](C7=CC(=O)OC7)CC[C@]65O)C4)O[C@@H]3C)O[C@@H]2C)C[C@H](O)[C@@H]1O,ReNcell VM,"mitochondrial membrane potential, TMRM",24 h,940 ± 20 nM
Cn1ncc(-c2nc(N[C@H]3CC[C@H](N)CC3)ncc2Cl)c1CC1CC1,primary NRAS/IDH2-mutated AML CD34+ blasts,blast expansion,HUVEC co-culture,38 nM
COc1cc(C(=O)c2cc3c(-c4ccccc4)c(OC)ccc3o2)cc(OC)c1OC,FM3A,cell proliferation,48 h,> 50000 nM
COc1c(C)c2c(c(O)c1C/C=C(\C)CCC(=O)O)C(=O)OC2,COLO 205,cell proliferation,,288 nM
Clc1nc[n]([Au][PH](c2ccccc2)(c2ccccc2)c2ccccc2)c1Cl,NCI-H661 HMOX1-GFP low,"cell viability, MTT",48 h,900 nM
C=C(C)[C@H]1Cc2c(ccc3c2O[C@@H]2COc4cc(OC)c(OC)cc4[C@@H]2C3=O)O1,ReNcell VM,"intracellular glutathione level, monochlorobimane",24 h,330 ± 20 nM
CC1(C)[C@@H](O[C@H]2O[C@H](C(=O)O)[C@@H](O)[C@H](O)[C@H]2O[C@@H]2O[C@H](C(=O)O)[C@@H](O)[C@H](O)[C@H]2O)CC[C@]2(C)[C@H]3C(=O)C=C4[C@@H]5C[C@@](C)(C(=O)O)CC[C@]5(C)CC[C@@]4(C)[C@]3(C)CC[C@@H]12,ACE2-SNAP-HEK293T,"cell viability, CCK-8",24 h,77700 nM
CCCCC/C=C\C/C=C\C/C=C\C/C=C\CCCC(=O)NCCO,ReNcell VM,"intracellular glutathione level, monochlorobimane",24 h,6400 ± 330 nM
O=C1CCC(N2C(=O)c3cccc4c(Cc5cnn(C6CCN(C(=O)C7(O)CCC7)CC6)c5)ccc2c34)C(=O)N1 (stereo not shown),NCI-H929,cell proliferation,72 h,0.007 ± 0.003 nM
O=c1c(O)c(-c2ccc(O)c(O)c2)oc2cc(O)cc(O)c12,ACE2-SNAP-HEK293T,"cell viability, CCK-8",24 h,121000 nM

# A few entries again:
SMILES,cell line,test,conditions,IC50
O=C1CCC(N2C(=O)c3cccc4c(Cc5cnn(C6CCN(C(=O)C7(O)CCC7)CC6)c5)ccc2c34)C(=O)N1 (stereo not shown),NCI-H929,cell proliferation,72 h,0.007 ± 0.003 nM
CC1(C)[C@@H](O[C@H]2O[C@H](C(=O)O)[C@@H](O)[C@H](O)[C@H]2O[C@@H]2O[C@H](C(=O)O)[C@@H](O)[C@H](O)[C@H]2O)CC[C@]2(C)[C@H]3C(=O)C=C4[C@@H]5C[C@@](C)(C(=O)O)CC[C@]5(C)CC[C@@]4(C)[C@]3(C)CC[C@@H]12,ACE2-SNAP-HEK293T,"cell viability, CCK-8",24 h,77700 nM
